Assay results gathered from unrelated publications.
Protocols differ between the studies behind these lines. Values joined by “and” are separate records of one study, mostly repeats; a detail may differ. ± gives the spread as reported.

NC(=O)N/N=C/c1ccc(OCc2ccccc2)cc1: “catalase activity (OD450)” 0.191 a.u. (IMR-32; 200 µg/mL, 24 h; higher = more activity).
For CC(C)C[C@H](NC(=O)[C@H](CC(=O)O)NC(=O)CNC(=O)[C@@H](N)CCCNC(=N)N)C(=O)N[C@@H](C)C(=O)N[C@H](C(=O)N[C@@H](CC(C)C)C(=O)N[C@@H](CCCNC(=N)N)C(=O)N[C@@H](CCC(N)=O)C(=O)N[C@@H](CC(C)C)C(=O)N[C@@H](C)C(=O)N[C@@H](CCC(N)=O)C(=O)N[C@@H](CCC(=O)O)C(=O)N[C@@H](CC(=O)O)C(=O)NCC(=O)N[C@H](C(=O)N[C@H](C(=O)NCC(=O)N[C@H](C(=O)N[C@@H](CCCNC(=N)N)C(=O)NCCOCCOCCOCCOCCOCCOCCOCCOCCOCCOCCOCCOCCC(=O)N[C@@H](CS)C(N)=O)C(C)C)C(C)C)C(C)C)[C@@H](C)O, the selectivity ratio was 15 ± 5.5 (H1650 lung adenocarcinoma; cell binding, phage binding, measured: output/input phage; 10 min, 37 °C; reference: control phage).
O=C(C[Se]C(=O)c1cccs1)Nc1cccc(C(F)(F)F)c1 gave a CC50 of 7.29 µM (NCI60 ovarian subpanel; cytotoxicity, inhibitor; five-dose).
CNC(=S)N/N=C/c1ccc(OCc2ccccc2)cc1 — result for “glutathione peroxidase activity (OD450)”: 0.083 a.u. (IMR-32; measured: GPX3; 300 µg/mL, 24 h; higher = more activity).
For CSCC[C@H](NC(=O)[C@@H](NC(=O)[C@H](CCC(N)=O)NC(=O)[C@H](CO)NC(=O)[C@@H](N)C(C)C)[C@@H](C)O)C(=O)N[C@@H](CCCNC(=N)N)C(=O)N[C@@H](CCC(N)=O)C(=O)N[C@H](C(=O)N[C@@H](C)C(=O)N[C@H](C(=O)N1CCC[C@H]1C(=O)N[C@@H](CC(C)C)C(=O)N[C@@H](CC(C)C)C(=O)N[C@@H](Cc1c[nH]c2ccccc12)C(=O)N[C@@H](Cc1ccccc1)C(=O)N[C@@H](Cc1c[nH]c2ccccc12)C(=O)N[C@H](C(=O)NCC(=O)N[C@@H](CO)C(=O)N[C@@H](CC(C)C)C(=O)NCCOCCOCCOCCOCCOCCOCCOCCOCCOCCOCCOCCOCCC(=O)N[C@@H](CS)C(N)=O)[C@@H](C)O)C(C)C)[C@@H](C)O, the selectivity ratio was 0.84 ± 0.25 (H1666 lung adenocarcinoma; cell binding, phage binding, measured: output/input phage; 10 min, 37 °C; reference: control phage).
The IC50 of Cc1cc(Oc2nc(N3CC[C@@H](c4ccncc4)C3)ncc2F)[nH]n1 is reported as 95.5 µM (22Rv1; cell proliferation; prostate cancer).
The CC50 of O=C(C[Se]C(=O)C12CC3CC(CC(C3)C1)C2)Nc1cccc(C(F)(F)F)c1 is reported as 31.6 µM (NCI60 renal subpanel; cytotoxicity, inhibitor; five-dose).
For COc1ccccc1-c1ccncc1C(=O)Nc1nnc(OCc2ccc(Cl)cc2)s1, the colony survival was 79.9% (HCT116 BRCA2-/-; 0.125 µM, average of 3 runs; reference: untreated).
For O=C(C[Se]C(=O)c1ccccc1)Nc1cccc(C(F)(F)F)c1, “mean growth percent” read -77.2% (NCI60 renal subpanel; cell growth; 10 µM, 48 h, one-dose).
CC(C)(C)C(=O)OCOP(=O)(OCOC(=O)C(C)(C)C)C1CCCN(O)C1=O (stereo not drawn) gave a log GI50 of -6.36 log M (SF-268).
O=C1NC2(CC2)COc2ncc(F)cc2[C@H]2COCCN2c2ccn3ncc1c3n2 — result for “organ-to-body weight ratio”: 0.745 ± 0.068% (Sprague-Dawley rat, male, testes; oral, 20 mg/kg/day, 4 weeks dosing, end of recovery).
O=C(O)c1ccc(-c2nc(-c3ccccc3Cl)c3sccn23)cc1 has a fold change of 1.02 fold and 1.01 fold (human CD34+ hematopoietic stem cells; megakaryocyte differentiation, flow cytometry, measured: CD61; 10 µM, day 10, together with: TPO; reference: control).
For O=C(C[Se]C(=O)c1ccc2ccccc2c1)Nc1cccc(C(F)(F)F)c1, the CC50 was 6.25 µM (NCI60 NSCLC subpanel; NCI60 five-dose screen).
For CC(C)CC(O)(CC(C)C)c1cn(C(=O)N2CCCC2)nn1, the protein level was 1.08 (mouse T-cells; SILAC proteomics, measured: LARP1; 1 nM, 6 h, unit not given; reference: DMSO).
With O=C(C[Se]C(=O)c1ccco1)Nc1cccc(C(F)(F)F)c1 the mean TGI was 17.4 µM (NCI60 panel; cell growth; five-dose screen).
For CCN(Cc1ccccc1)C(=O)CCc1nc(CN2CCN(C(=O)Cc3ccc(OC)c(OC)c3)CC2)no1, “action potential width” read “no effect” (rat DRG neurons; current clamp; 30 nM to 10 µM; reference: control).
COc1ccccc1/C=C/[N+](=O)[O-]: “MID synergy score” 2.68 (human PBMC; Bliss model; concentration not given; direction not given).
COc1ccc(NC(=O)c2ccc3[nH]c(-c4ccc(N(C)C)cc4)nc3c2)cn1 gave a PI-positive cells of 219 count and 202 count and 282 count (HCT116; IncuCyte; concentration not given, 40 (unit not given)).
With CC(=O)NCSC[C@H](NC(=O)[C@@H]1CCCN1C(=O)[C@H](C)NC(=O)[C@@H](NC(=O)CNC(=O)[C@@H](NC(=O)[C@H](Cc1c[nH]c2ccccc12)NC(=O)[C@H](C)NC(=O)CNC(=O)[C@H](CO)NC(=O)[C@H](C)NC(=O)[C@@H]1CCCN1C(=O)[C@H](Cc1c[nH]c2ccccc12)NC(=O)[C@H](C)NC(=O)[C@H](C)NC(=O)[C@@H](N)Cc1ccc(O)cc1)[C@@H](C)O)[C@@H](C)O)C(=O)N[C@@H](CO)C(=O)N[C@@H](C)C(=O)NCC(=O)N[C@H](C(=O)NCCOCCOCCOCCOCCOCCOCCOCCOCCOCCOCCOCCOCCC(=O)N[C@@H](CS)C(N)=O)[C@@H](C)O the selectivity ratio was 7.3 ± 2.6 (H1264 lung adenocarcinoma; cell binding, phage binding, measured: output/input phage; 10 min, 37 °C; reference: control phage).
[Cl-].[Cl-].[Ru+2].c1ccc(-c2ccccn2)nc1.c1ccc(-c2ccccn2)nc1.c1ccc2cc3nc4c5cccnc5c5ncccc5c4nc3cc2c1 has an EC50 of 123 ± 4 µM (SK-MEL-28; cell viability; dark, 1% O2).
C=CCN1C(=O)C(CC=C)(C(=O)OCC)Oc2cc(F)ccc21 (stereo not drawn) has an inhibition of 0.02 ± 0.19% (HEK293T; cytotoxicity, CCK-8; 3.13 µM, 72 h).
For O=C(C[Se]C(=O)c1cccnc1Nc1cccc(C(F)(F)F)c1)Nc1cccc(C(F)(F)F)c1, the CC50 was 8.95 µM (NCI60 ovarian subpanel; cytotoxicity, inhibitor; five-dose).
CC(C)[C@H](NC(=O)[C@H](CCCNC(=N)N)NC(=O)[C@@H]1CCCN1C(=O)[C@@H](NC(=O)[C@H](C)NC(=O)[C@H](Cc1ccc(O)cc1)NC(=O)[C@H](CCC(N)=O)NC(=O)[C@H](CCCCN)NC(=O)[C@H](CCCNC(=N)N)NC(=O)[C@@H]1CCCN1C(=O)[C@H](CCC(=O)O)NC(=O)[C@@H](NC(=O)[C@H](C)N)[C@@H](C)O)[C@@H](C)O)C(=O)N[C@@H](Cc1ccccc1)C(=O)N[C@@H](Cc1c[nH]c2ccccc12)C(=O)N[C@H](C(=O)N[C@@H](CC(=O)O)C(=O)N[C@@H](C)C(=O)N1CCC[C@H]1C(=O)NCC(=O)NCCOCCOCCOCCOCCOCCOCCOCCOCCOCCOCCOCCOCCC(=O)N[C@@H](CS)C(N)=O)[C@@H](C)O has a selectivity ratio of 22 ± 1.5 (H661 lung large cell carcinoma; cell binding, phage binding, measured: output/input phage; 10 min, 37 °C; reference: control phage).
CCOC(=O)C1(Cc2ccccc2)Oc2cc(F)ccc2N(Cc2ccccc2)C1=O (stereo not drawn) gave an inhibition of 0% (HEK293T; cytotoxicity, CCK-8; 0.78 µM, 72 h).
For CC1CCC2C(C)C(OC(=O)CCC(=O)N3CCC(Nc4ccc(S(=O)(=O)NC(=O)c5ccc(N6CCN(CC7=C(c8ccc(Cl)cc8)CC(C)(C)CC7)CC6)cc5Oc5cnc6[nH]ccc6c5)cc4[N+](=O)[O-])CC3)OC3OC4(C)CCC1C32OO4 (stereo not drawn), “late apoptotic cells” read 20.3% (THP-1; annexin V/PI flow cytometry, measured: annexin V+/PI+; 1.6 µM, 24 h).
O=C(C[Se]C(=O)c1cc2ccccc2[nH]1)Nc1cccc(C(F)(F)F)c1 has a CC50 of 6.24 µM (NCI60 ovarian subpanel; cytotoxicity, inhibitor; five-dose).
For Cc1cccc(-c2cccc(C)n2)n1.Cc1cccc(-c2cccc(C)n2)n1.F[P-](F)(F)(F)(F)F.F[P-](F)(F)(F)(F)F.[Ru+2].c1ccc2c(-c3nc4c5cccnc5c5ncccc5c4[nH]3)cccc2c1, “phototherapeutic index ratio” read 11 fold (SK-MEL-28; resazurin; normoxia; reference: blue over green light).
